Measurements pooled from the literature.
Parts stem from different laboratories: compare values within a part only. Substitutions count along the parent as printed.

Sample 1
Target: CCNF, cyclin fold, Cln2 fusion (human)
Technique: yeast growth competition, sequencing
Matrix: yeast
Setting: strong parent motif
Relative to: not given
Reading: higher = stronger binding
Starting sequence: CDC6 docking peptide (human); TLKGRRLVFDNQL
| Variant | normalised enrichment score |
| --- | --- |
| TLMGRRLVFDNQL [K3M] | 8.09 |
| TLKGRRLSFDNQL [V8S] | 6.18 |
| TLKGRRLVTDNQL [F9T] | 0.673 |
| TLKGVRLVFDNQL [R5V] | 2.42 |
| TLKGFRLVFDNQL [R5F] | 0.687 |
| TLKGRRLVKDNQL [F9K] | 1.64 |
| TLKGRVLVFDNQL [R6V] | 6.29 |
| TLKGRRLVVDNQL [F9V] | 0.662 |
| QLKGRRLVFDNQL [T1Q] | 7.52 |
| TLKGRRLYFDNQL [V8Y] | 10.1 |
| PLKGRRLVFDNQL [T1P] | 8.94 |
| TLKGRRLVFDVQL [N11V] | 9.09 |
| TLKGRRLVFDNQA [L13A] | 9.27 |
| TLKERRLVFDNQL [G4E] | 1.25 |
| TLEGRRLVFDNQL [K3E] | 5.78 |
| TLKGRRLVQDNQL [F9Q] | 0.355 |
| TLKGRRLVFDNPL [Q12P] | 9 |
| TLKGRRLHFDNQL [V8H] | 8.49 |
| TLKGRRLVLDNQL [F9L] | 6.48 |

Sample 2
Target: Sal-like protein 4, full length isoform B (SALL4, Homo sapiens, UniProt Q9UJQ4-2, residues 1-616)
Technique: universal PBM
Molecule type: double-stranded DNA, one strand shown
Matrix: in vitro
Concentration: not given
Setting: 8-mer, flanks averaged, mean of replicates
Reading: higher = stronger binding
Residues (chain): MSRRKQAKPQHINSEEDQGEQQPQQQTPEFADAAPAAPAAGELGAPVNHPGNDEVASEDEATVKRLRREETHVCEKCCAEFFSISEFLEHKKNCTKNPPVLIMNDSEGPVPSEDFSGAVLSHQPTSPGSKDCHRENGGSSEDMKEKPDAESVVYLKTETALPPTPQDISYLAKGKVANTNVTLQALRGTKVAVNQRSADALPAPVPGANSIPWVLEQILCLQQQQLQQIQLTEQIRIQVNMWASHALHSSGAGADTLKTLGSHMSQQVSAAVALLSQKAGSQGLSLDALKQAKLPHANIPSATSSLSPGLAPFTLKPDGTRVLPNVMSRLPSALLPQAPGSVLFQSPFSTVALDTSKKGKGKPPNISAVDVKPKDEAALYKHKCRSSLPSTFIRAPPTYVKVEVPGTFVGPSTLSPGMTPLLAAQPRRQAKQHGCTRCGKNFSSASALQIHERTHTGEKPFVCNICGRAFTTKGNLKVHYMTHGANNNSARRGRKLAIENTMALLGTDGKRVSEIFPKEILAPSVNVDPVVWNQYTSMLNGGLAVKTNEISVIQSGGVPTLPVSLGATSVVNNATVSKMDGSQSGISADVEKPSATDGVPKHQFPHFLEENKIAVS
| Oligonucleotide | E-score |
| --- | --- |
| ATGGCCGG | -0.184 |
| AAATACAC | 0.161 |
| GCGTAACA | 0.0338 |
| CAGGCGTA | -0.0132 |
| GCCTTGTA | 0.0697 |
| CCGAAACA | 0.102 |
| GGGTTGGA | -0.149 |
| CGCCCACC | -0.231 |
| AAAAATGC | 0.121 |
| ATCCTGCA | 0.0776 |
| CAGGTTTA | -0.0103 |
| CCACCTGG | -0.285 |
| GTGCTCTA | -0.237 |
| CTTCGCAC | -0.0437 |
| GACAATAC | 0.269 |
| GACGTAGA | -0.0799 |
| TGAAAAAA | 0.355 |
| AGGGGACA | -0.214 |

Sample 3
Target: Ras GTPase-activating protein-binding protein 1, RRM domain (G3BP1, Homo sapiens, UniProt Q13283)
UniProt Q13283, sequence (whole entry, looked up): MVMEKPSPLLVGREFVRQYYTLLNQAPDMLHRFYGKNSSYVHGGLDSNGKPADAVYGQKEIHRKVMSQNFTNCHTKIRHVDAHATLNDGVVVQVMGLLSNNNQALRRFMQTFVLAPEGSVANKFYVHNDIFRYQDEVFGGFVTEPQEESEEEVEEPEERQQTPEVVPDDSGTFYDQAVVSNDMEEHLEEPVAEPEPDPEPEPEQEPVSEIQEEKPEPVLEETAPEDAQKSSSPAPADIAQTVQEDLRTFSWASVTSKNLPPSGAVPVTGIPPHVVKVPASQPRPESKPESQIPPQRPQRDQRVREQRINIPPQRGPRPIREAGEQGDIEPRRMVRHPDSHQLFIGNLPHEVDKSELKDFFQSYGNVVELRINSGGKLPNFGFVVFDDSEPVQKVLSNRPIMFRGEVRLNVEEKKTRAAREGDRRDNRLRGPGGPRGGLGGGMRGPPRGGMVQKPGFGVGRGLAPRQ
Technique: RNA Bind-n-Seq
Molecule type: RNA
Matrix: in vitro
Concentration: 1 µM
Setting: whole 134-nt RNA, ends assumed
With: 150 mM KCl
Relative to: input library
Reading: higher = stronger binding
| Oligonucleotide | log2 enrichment |
| --- | --- |
| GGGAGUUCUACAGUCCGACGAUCCAAGUCCUGUGCUACACAUCGUAUGUACCGAAUCGGGGUUUGGGUUUGGGGUUUGGAAAGUAUUAUGUUACGCCGUUCGGAUCUGCACUUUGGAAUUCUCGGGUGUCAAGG | -0.558 |
| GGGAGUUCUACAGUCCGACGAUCUCAAGUCCUGUGCUACACAUCGUAUGUACCGAAUCGGGGAAAGGAAAGGAAAGGGAAAGUAUUAUGUUACGCCGUUCGGAUCUGCACUUCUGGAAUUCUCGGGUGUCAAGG | -0.262 |
| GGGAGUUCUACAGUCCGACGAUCACCAUGCAGGUGGGCAUCUUUGGGAAGUGGGGCAAGGGGGGGAUAGGGAGGAGGGUAACACUUUGGGAACAGGUGGUCCCAGGUCGUUUCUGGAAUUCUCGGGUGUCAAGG | 0.285 |
| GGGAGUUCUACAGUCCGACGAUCAGUCCUGUGCUACACAUCGUAUGUACCGAAUCGGGGUGGGGUUUGGGGAAAAAGGGGAAAGUAUUAUGUUACGCCGUUCGGAUCUGCACUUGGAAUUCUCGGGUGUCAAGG | 1.15 |
| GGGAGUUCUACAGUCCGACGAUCGUCCUGUGCUACACAUCGUAUGUACCGAAUCGGAAAAAAAGGAAAAAGGAAAAAAAGGAAAGUAUUAUGUUACGCCGUUCGGAUCUGCACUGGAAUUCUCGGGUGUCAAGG | 0.0681 |
| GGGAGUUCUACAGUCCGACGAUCUGCCUUGCAGAUACGUGGCUUUCCUGAAGCUGUUCCUGGAGACGGCGGAGAAGCACUUCAUGGUGGGCCACCGUGUCCACUACUAUGUCUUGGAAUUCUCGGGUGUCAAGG | -0.0924 |
| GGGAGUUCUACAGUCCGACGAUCUCCUCAAGUCCUGUGCUACACAUCGUAUGUACCGAAUCGGUGGUGGUGGGGAAAGUAUUAUGUUACGCCGUUCGGAUCUGCACUUCCAGCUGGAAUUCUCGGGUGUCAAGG | -0.106 |
| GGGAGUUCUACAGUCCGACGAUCGUGCUACACAUCGUAUGUACCGAAUCGGGGAAAAAAAGGGGUUUUUUUGGGGUUUUUUUGGGGAAAGUAUUAUGUUACGCCGUUCGGAUCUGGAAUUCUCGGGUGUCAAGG | 1.11 |
| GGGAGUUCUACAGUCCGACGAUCUCCUGUGCUACACAUCGUAUGUACCGAAUCGGGUUUUUUGGGGUUUUUUGGGUUUUUUGGAAAGUAUUAUGUUACGCCGUUCGGAUCUGCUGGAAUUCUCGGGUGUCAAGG | -0.0979 |
| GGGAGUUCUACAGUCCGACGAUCUGGCCCUGGUGGCAUGCGGGGAGGAAGAGGUGGCCUCAUGGAUCGUGGUGGUCCCGGUGGAAUGUUCAGAGGAGGCCGUGGUGGAGACAGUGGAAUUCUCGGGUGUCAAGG | 1.65 |
| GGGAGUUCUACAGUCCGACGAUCUGGGAGGUGGAUUUUGAUUAUUUUUUUAGCUCAUUUCCAGGGGUGGGAAUUUUUUUUUAAUAUGUGUCAUGAAUAAAGUUGUUUUUGAAAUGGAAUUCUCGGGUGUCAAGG | 2.13 |
| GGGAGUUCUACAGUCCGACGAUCCUCAAGUCCUGUGCUACACAUCGUAUGUACCGAAUCGGAAAAAGGUUUGGUGGAAAGUAUUAUGUUACGCCGUUCGGAUCUGCACUUCCAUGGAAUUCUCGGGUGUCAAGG | -0.269 |
| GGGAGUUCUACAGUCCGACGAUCUGGCCCUGGUGGCAUGCGGGGAGGAAGAGGUGGCCUCAUGGAUCGUGGUGGUCCCGGUGGAAUGUUCAGAUGUGGCCGUGGUGGAGACAGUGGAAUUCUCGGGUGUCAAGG | 1.59 |
| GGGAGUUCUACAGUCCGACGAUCAGUCCUGUGCUACACAUCGUAUGUACCGAAUCAAAUUUUUAAACCCCCAAACCCAAAAAAGUAUUAUGUUACGCCGUUCGGAUCUGCACUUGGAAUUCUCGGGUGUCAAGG | -0.55 |

Sample 4
Target: RNA binding protein fox-1 homolog 2, RRM domain, GST-SBP tag (RBFOX2, Homo sapiens, UniProt O43251-10, residues 100-194)
Technique: RNA Bind-n-Seq
Molecule type: RNA
Matrix: in vitro
Concentration: 365 nM
Setting: natural RNA segment, single round, ends assumed
Relative to: no-protein control
Reading: higher = stronger binding
Construct (chain): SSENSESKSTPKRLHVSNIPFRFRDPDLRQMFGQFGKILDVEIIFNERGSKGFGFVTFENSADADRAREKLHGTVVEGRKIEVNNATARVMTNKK
| Oligonucleotide | RBNS enrichment (R) |
| --- | --- |
| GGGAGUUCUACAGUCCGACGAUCGCAUUGGACAAUCAAAUUCCCCUGAGUUUCAUAAUCUCAUCAAUAUUUUAAGAUAGGCGAGCACACACUAAUAAUAUCUAUGCCUACCUUCUUGGGUGGACUCAACUGUAUGGAAUUCUCGGGUGCCAA | 0.573 |
| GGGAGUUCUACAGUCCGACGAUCUAUAACGUAUCAUGGCAACCAGAGCUUCCCAUAUUAUUGACAAGUAGGGAUCAUUAGGUUCUGGUUUGAACAUUCUGAAUGUGAACAAAAUGAAAUAGUAGUUAAGAGGUUGGAAUUCUCGGGUGCCAA | 0.573 |
| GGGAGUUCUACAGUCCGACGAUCAUUUUAUAACAGGGCGGCUGGUUAAUAUCUCACACAGUUUAAAAAAUCAGCCCCUAAUUUCUCCAUGUUUACACUUCAAUCUGCAGGCUUCUUAAAGUGACAGUAUCCCUUGGAAUUCUCGGGUGCCAA | 0.306 |
| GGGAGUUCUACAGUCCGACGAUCCCAGGCCUCUAGCCUCCAUGGCUGAUGACCUCAGCUUUCACACUGGUGAAGUCUGUGUACCCAUACUGCAGCCCCAUCCCAUGGGGCCCCUGAAGACCCACUGAGGAAUUUGGAAUUCUCGGGUGCCAA | 0.281 |
| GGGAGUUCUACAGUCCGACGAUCCUUCAUCUGUUCCCGCCUCUGCCAUCUGCUACGGUGUCGUCAGUUGUAUGGCAUUAAUUUCCUGCCACUAGAGAUAUUUUGAAGAUUGCUUGAAUGCUGGUGUCUGUUAGUGGAAUUCUCGGGUGCCAA | 2.43 |
| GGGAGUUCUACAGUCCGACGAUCCAGCAGCGAGGCCACUGAAGAGCAACACACCCAGUGUGUGUCAGUGUUCUCAGCCCAGCCCUCCCUGAGAACCCACAUUUGGCUCGUAUGUAUGUGAGCACGUUGGGGUGUGGAAUUCUCGGGUGCCAA | 1.07 |
| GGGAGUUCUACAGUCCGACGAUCGCUAUCGCAGACCCACCUGACUGUGGAAUAUAAAAUUGCCAAAUAUCCUUUCUCAUGGAAGCGCGUACCCGUUCGUGGAGGAAACGGAACGGCAGCCCAGCCGUGGGACGUGGAAUUCUCGGGUGCCAA | 0.312 |
| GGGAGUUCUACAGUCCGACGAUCCCCUUCUUACCCGAGUGCCUCCUGCUUCCUCCGAGGCCCAGGGGGACUCAUAUCCAAUGGCUCCUAAGUGUUUGUCCUGUGCAAUAUACAGCCCAGGGAGGGAAGGGAAGUGGAAUUCUCGGGUGCCAA | 0.219 |
| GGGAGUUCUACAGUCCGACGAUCUUUCGCUUUUCUUUUUUCUUGAGAGAUCUAAAGAGAAACUGUAGAUUGUUUUCCUGACAGCAAAAGACUAAUGUGACAAAAUGAAGUCAUUGUAAAGAAGCGAUGCAACUUGGAAUUCUCGGGUGCCAA | 0.714 |
| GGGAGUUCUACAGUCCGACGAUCAGAACUGCUUUCCUAUAUUUAUUUCUUGAUAUUUGAGUAAGGGAUCUGAAUAAACAACCCCAGCCCACUUAACUAUUCACAUCUUAGAGGCAAAUUCUUGCUAUGUAACUUGGAAUUCUCGGGUGCCAA | 0.678 |
| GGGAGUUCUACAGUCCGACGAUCUUCCUCCCGGCCCUGUGGGCCAGGGAGGGGCGUUGGAAACAGCACUUUAUAUUUAUAUAGAACAUUGAGGUUGUGUCAAUAAAAACAGUGUUUUGUUUAAAAAAGAGCAGUGGAAUUCUCGGGUGCCAA | 0.294 |
| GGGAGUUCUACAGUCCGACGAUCGCCCUUCCCACCUGGACAGUGGUGUGUGUAGAAAGCCAGCUGGAUGUUUGUGGUGGGGCCUCAUGGUGCCUAGGAGGAGAUAAAGAUGAGGAGGUUUUUCCUUAUUGUAUUGGAAUUCUCGGGUGCCAA | 0.771 |

Sample 5
Target: Histone acetyltransferase KAT6A, winged helix 1, GST fusion (KAT6A, Homo sapiens, UniProt Q92794, residues 1-85)
Technique: protein binding microarray
Molecule type: double-stranded DNA, one strand shown
Matrix: in vitro
Concentration: not given
Setting: 8-mer, flanks averaged, mean of 2 arrays, mostly near background
Relative to: not given
Reading: higher = stronger binding
Residues (chain): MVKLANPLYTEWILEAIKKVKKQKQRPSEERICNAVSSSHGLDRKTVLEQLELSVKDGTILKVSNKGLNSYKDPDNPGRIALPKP
| Oligonucleotide | E-score |
| --- | --- |
| TTAGCGAA | 0.0169 |
| CAGAGTAC | 0.0558 |
| CAACTCAA | -0.247 |
| GAGCGCTC | 0.349 |
| GCCCCTAA | -0.0284 |
| CTAAGTGC | -0.205 |
| ACTTACTC | -0.0489 |
| GGGCGCCA | 0.202 |
| CAATGTAG | -0.26 |
| AATCTCGT | -0.149 |
| GAGGGTAA | -0.17 |
| AGTTCCAG | -0.17 |
| AGGAGGGC | -0.201 |
| GCCTCCCC | 0.139 |
| GGTCAAAC | 0.105 |
| CATAGGTC | -0.132 |
| TCTCACCA | -0.195 |
